Published values gathered from unrelated publications.
Protocols differ between the studies behind these lines. ± gives the spread as reported.
Protein lin-28 homolog A: Protein lin-28 homolog A (Mus musculus, UniProt Q8K3Y3)
Chain of UniProt Q8K3Y3 (whole entry, looked up): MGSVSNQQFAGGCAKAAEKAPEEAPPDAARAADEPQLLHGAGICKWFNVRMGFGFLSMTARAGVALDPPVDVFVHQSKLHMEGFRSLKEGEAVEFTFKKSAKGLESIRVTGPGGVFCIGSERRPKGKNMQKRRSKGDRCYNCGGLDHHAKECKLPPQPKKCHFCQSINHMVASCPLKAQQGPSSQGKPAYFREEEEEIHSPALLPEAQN
TYMS: Thymidylate synthase (TYMS, Homo sapiens, UniProt P04818)
Chain of UniProt P04818 (whole entry, looked up): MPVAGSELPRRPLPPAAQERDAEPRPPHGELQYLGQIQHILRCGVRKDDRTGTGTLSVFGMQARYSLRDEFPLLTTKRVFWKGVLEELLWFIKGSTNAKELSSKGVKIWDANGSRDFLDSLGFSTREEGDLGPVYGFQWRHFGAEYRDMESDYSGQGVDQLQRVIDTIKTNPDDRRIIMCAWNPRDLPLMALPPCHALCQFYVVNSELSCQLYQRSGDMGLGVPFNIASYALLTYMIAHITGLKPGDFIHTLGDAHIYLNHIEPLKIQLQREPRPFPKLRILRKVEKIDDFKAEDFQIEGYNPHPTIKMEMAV
TGFBR1: TGF-beta receptor type-1 (TGFBR1, Homo sapiens, UniProt P36897)
Chain of UniProt P36897 (whole entry, looked up): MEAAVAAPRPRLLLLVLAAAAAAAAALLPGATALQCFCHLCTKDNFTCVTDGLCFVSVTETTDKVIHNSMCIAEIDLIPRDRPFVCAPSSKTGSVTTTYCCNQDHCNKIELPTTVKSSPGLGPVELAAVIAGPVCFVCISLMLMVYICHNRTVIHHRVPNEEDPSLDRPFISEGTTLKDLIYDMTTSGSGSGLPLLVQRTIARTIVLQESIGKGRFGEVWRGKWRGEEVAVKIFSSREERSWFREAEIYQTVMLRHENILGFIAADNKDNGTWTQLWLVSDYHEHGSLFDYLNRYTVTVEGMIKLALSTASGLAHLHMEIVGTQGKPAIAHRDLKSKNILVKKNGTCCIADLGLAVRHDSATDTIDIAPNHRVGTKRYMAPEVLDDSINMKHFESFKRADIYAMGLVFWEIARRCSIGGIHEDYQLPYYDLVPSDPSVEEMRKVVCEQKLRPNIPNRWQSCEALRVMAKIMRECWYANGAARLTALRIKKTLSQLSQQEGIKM
Chain of UniProt P06396 (whole entry, unmodified, looked up): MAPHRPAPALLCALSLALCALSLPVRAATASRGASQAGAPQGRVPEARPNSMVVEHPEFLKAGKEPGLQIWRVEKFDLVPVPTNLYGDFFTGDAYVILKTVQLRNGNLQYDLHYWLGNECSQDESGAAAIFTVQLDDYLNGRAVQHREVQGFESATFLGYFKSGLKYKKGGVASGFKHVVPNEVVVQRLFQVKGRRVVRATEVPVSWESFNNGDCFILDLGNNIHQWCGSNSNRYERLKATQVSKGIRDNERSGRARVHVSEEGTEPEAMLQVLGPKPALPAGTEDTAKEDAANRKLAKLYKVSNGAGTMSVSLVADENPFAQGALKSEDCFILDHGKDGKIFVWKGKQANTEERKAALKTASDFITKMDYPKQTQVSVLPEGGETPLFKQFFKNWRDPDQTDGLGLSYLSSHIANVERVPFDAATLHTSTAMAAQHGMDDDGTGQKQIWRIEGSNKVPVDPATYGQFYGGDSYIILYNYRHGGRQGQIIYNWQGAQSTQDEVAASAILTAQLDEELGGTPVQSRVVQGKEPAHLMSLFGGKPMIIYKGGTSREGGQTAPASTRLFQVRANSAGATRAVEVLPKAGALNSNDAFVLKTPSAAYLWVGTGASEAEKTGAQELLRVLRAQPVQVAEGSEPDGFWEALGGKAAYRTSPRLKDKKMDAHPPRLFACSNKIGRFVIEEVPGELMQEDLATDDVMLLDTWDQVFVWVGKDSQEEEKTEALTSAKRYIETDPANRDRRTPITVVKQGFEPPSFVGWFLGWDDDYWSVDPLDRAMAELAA
Chain of UniProt P40261 (whole entry, looked up): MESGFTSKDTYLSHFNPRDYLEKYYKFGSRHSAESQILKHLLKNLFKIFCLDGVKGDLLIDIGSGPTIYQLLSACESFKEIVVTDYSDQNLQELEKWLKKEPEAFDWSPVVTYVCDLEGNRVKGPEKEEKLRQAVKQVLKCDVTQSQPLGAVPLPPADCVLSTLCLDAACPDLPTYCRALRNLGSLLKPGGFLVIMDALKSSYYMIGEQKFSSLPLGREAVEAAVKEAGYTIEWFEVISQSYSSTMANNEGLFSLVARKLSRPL
Chain of UniProt Q16696 (whole entry, looked up): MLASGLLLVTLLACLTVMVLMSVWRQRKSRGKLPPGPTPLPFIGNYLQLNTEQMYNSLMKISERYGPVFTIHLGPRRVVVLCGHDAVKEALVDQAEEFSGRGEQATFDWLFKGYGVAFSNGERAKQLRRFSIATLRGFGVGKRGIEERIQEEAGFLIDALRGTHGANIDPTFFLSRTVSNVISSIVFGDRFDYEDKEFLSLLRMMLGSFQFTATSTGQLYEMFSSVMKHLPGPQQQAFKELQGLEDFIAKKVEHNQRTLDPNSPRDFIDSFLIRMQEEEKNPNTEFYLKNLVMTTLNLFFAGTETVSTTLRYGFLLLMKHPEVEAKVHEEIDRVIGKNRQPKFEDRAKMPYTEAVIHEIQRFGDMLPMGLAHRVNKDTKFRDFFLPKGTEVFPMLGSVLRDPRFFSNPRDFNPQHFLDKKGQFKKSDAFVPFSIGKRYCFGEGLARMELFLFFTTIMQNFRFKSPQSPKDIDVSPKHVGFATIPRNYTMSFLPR
Chain of UniProt O15146 (whole entry, looked up): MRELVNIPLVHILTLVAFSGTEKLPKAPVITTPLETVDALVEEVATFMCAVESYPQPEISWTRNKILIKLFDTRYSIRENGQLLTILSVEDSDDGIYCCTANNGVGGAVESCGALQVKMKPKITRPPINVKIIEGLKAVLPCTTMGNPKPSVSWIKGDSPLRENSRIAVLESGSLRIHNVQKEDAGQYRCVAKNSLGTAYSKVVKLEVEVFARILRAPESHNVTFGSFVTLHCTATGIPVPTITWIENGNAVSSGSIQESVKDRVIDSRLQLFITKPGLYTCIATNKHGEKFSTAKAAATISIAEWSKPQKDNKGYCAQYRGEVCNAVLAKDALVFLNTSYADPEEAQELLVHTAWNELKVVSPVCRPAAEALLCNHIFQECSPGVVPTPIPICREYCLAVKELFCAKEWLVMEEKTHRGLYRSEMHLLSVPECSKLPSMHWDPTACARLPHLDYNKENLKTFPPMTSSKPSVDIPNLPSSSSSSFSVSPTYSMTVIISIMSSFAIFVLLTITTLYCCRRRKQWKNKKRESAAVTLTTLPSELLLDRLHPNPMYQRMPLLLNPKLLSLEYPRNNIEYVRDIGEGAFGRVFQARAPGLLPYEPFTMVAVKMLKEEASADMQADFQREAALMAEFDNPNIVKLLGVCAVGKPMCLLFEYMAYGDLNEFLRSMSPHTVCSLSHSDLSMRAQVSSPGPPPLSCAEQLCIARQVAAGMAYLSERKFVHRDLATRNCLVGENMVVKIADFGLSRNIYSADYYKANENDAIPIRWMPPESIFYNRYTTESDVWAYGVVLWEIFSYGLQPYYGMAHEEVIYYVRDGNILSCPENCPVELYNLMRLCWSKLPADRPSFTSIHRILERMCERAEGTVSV
Chain of UniProt Q9Y6Y9 (whole entry, looked up): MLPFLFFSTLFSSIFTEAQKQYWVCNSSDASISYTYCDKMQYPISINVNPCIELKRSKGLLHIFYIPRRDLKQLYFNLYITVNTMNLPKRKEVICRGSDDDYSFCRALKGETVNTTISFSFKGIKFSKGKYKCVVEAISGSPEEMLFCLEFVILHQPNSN
Chain of UniProt Q9C0K7 (whole entry, looked up): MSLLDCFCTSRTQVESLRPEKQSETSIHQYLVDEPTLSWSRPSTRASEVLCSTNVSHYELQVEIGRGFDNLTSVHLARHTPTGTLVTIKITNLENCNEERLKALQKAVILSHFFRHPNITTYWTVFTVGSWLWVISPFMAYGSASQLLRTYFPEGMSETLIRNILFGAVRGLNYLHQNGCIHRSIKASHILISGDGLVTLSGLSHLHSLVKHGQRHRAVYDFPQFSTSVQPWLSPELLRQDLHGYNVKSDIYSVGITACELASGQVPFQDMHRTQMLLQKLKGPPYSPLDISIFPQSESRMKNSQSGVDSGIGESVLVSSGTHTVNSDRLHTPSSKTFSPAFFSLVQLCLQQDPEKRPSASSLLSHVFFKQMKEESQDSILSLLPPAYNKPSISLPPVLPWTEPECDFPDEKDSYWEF
Chain of UniProt Q15391 (whole entry, unmodified, looked up): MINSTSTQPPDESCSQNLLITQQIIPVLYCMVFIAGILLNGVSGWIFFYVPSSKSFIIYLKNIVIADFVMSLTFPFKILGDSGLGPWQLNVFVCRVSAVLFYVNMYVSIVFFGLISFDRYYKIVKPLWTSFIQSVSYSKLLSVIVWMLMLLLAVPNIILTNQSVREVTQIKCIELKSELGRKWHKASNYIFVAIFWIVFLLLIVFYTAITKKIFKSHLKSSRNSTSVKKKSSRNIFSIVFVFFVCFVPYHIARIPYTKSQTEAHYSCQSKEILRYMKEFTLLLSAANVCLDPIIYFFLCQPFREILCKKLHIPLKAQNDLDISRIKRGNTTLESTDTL
Chain of UniProt Q9BSA9 (whole entry, looked up): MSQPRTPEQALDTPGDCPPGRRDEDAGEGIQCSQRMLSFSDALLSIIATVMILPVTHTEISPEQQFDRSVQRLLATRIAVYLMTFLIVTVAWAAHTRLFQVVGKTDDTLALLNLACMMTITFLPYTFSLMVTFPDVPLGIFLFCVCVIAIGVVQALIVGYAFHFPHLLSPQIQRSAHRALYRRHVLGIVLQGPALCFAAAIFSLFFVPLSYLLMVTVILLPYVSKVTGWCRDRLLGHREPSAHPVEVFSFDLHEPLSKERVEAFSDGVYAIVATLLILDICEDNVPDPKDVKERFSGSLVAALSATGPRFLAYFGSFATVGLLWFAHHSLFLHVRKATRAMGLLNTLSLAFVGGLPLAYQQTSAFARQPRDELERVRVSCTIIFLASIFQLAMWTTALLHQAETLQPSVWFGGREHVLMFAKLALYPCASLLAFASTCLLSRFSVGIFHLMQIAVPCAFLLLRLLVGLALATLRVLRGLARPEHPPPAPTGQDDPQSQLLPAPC

Compound	target or system	test	test system	conditions	scale	measurement	value
C[C@H]1[C@H](OC(=O)CCC(=O)O)O[C@@H]2O[C@@]3(C)CC[C@H]4[C@H](C)CC[C@@H]1[C@@]24OO3	Lymphocyte antigen 96 (LY96, Homo sapiens, UniProt Q9Y6Y9)	tryptophan fluorescence quenching		corrected for ligand depletion		IC50	0.407 µM
NC(=O)c1cccc2c1O/C(=C\c1ccc(C(=O)N3CCN(c4nc5cc(F)ccc5[nH]4)CC3)s1)C2=O	Poly [ADP-ribose] polymerase 1 (PARP1, Homo sapiens, UniProt P09874)	inhibitor				IC50	0.037 µM
O=C(O)c1cc2cccc([N+](=O)[O-])c2[nH]1	Protein lin-28 homolog A					IC50	7.9 µM
Nc1nc(N)c2nc(C(=O)NCc3cccc(C(F)(F)F)c3)cnc2n1	TYMS	inhibitor				IC50	> 100 µM
O=c1ccn([C@@H]2O[C@H](COP(=O)(O)OP(=O)(O)O[C@H]3O[C@H](CO)[C@@H](O)[C@H](O)[C@H]3O)[C@@H](O)[C@H]2O)c(=S)[nH]1	P2Y purinoceptor 14 (P2RY14, Homo sapiens, UniProt Q15391, Y102A)					Ki	> 3 µM
COc1ccc([N+](=O)[O-])cc1-c1nc(-c2ccc(F)cc2)c(-c2ccncc2)[nH]1	TGFBR1	binding, LanthaScreen kinase binding				IC50	0.915 ± 0.011 µM
CC(=O)c1c(C)cc2cc(O)cc(O[C@@H]3O[C@H](CO)[C@@H](O)[C@H](O)[C@H]3O)c2c1O	HK-2 co-cultured with HepaRG	MTT		266.67 µM, 48 h	relative to: untreated control	cell viability	98.3 ± 11.8%
CC(=O)N[C@@H](CC(C)C)C(=O)N[C@@H](CC(C)C)C(=O)N[C@H](C=O)CCCNC(=N)N	proteinase A	enzyme activity, inhibitor				IC50	119 µM
CN1CCN(c2ccc(Nc3ncc4cc(C#N)c(=O)n(C5CCCC5)c4n3)cc2)CC1	Muscle, skeletal receptor tyrosine-protein kinase (MUSK, Homo sapiens, UniProt O15146)					IC50	2.78 µM
CCOC(=O)C1CCCN1C(=O)c1ccc(NCc2cnc3nc(N)nc(N)c3n2)cc1 (stereo not shown)	TYMS	inhibitor				IC50	> 100 µM
Cc1cccc(-c2nc[nH]c2-c2ccncc2)c1	TGFBR1	binding, LanthaScreen kinase binding				IC50	2 ± 0.0775 µM
COc1c(C(=O)O)csc1Br	Protein lin-28 homolog A					IC50	4.8 µM
NC(=O)c1cccnc1	Nicotinamide N-methyltransferase (NNMT, Homo sapiens, UniProt P40261)	enzyme activity, inhibitor				IC50	> 25.1 µM
COC(=O)c1ccc(-c2nc(-c3cccc(C)c3)c(-c3ccncc3)[nH]2)cc1	TGFBR1	binding, LanthaScreen kinase binding				IC50	2.68 ± 0.449 µM
CCCC(C)N1CCC(N(CCCNC(=O)CCl)C(=O)Nc2cccc(C(F)(F)F)c2)CC1 (stereo not shown)	DCN1-like protein 1, PONY domain (Homo sapiens, UniProt Q96GG9)	binding, inhibitor, TR-FRET		24 h, racemic mixture		IC50	7.74 ± 0.039 µM
C#Cc1ccc2ccccc2c1	Cytochrome P450 2A13 (Homo sapiens, UniProt Q16696)	coumarin 7-hydroxylation		20 min, pH 7.4, 37 °C, with: coumarin 10 µM		IC50	1.8 µM
Nc1ccnc(-c2ccccc2)c1	TMEM175 (Homo sapiens, UniProt Q9BSA9)	potassium flux, inhibitor	proteoliposomes			IC50	~31 µM
Fc1ccc(-c2nc[nH]c2-c2ccncc2)cc1	TGFBR1	binding, LanthaScreen kinase binding				IC50	1.571 ± 0.014 µM
Cn1cc(-c2ccc(-c3cncc(Cl)c3N3CCC4(CCNC4=O)CC3)cc2)cn1	COLO 205	microarray, measured: FLOT1		concentration not given, 6 h, gene set Flotillin-1	relative to: untreated cells	fold change in expression	1.12
CC(C)[C@H](NC(=O)[C@H](Cc1ccc(O)cc1)NC(=O)[C@H](Cc1ccc(O)cc1)NC(=O)[C@@H]1CCCN1C(=O)[C@H](CCC(=O)O)NC(=O)[C@H](CCC(=O)O)NC(=O)[C@H](Cc1c[nH]c2ccccc12)NC(=O)[C@@H]1CCCN1C(=O)[C@@H](NC(=O)[C@H](CCC(N)=O)NC(=O)c1ccc2c(c1)C(=O)OC21c2ccc(O)cc2Oc2cc(O)ccc21)C(C)C)C(=O)N[C@H](C(=O)N[C@@H](CCCCN)C(=O)N[C@@H](CCCCN)C(=O)N[C@@H](CO)C(=O)N[C@@H](CO)C(=O)NCC(=O)NCC(N)=O)C(C)C			human, plasma	intravenous infusion, 400 mg, predose, day 1		plasma concentration	not detected
COCc1nn(Cc2ccc(Cn3ccccc3=O)cc2)cc1C(=O)NCc1cc[nH]n1	Coagulation factor XI (F11, Homo sapiens, UniProt P03951)					IC50	> 40 µM
Nc1nc(N)c2nc(C(=O)NCc3ccccc3)cnc2n1	TYMS	inhibitor				IC50	> 100 µM
Cc1cc(O)c2c(c1)C(=O)c1cc(O)cc(O)c1C2=O	HK-2 co-cultured with HepaRG	MTT		33.33 µM, 48 h	relative to: untreated control	viability	81.7 ± 19.4%
CC[C@@H]1[C@H](F)C(=O)N[C@@H]1COc1nccc2cc(C(N)=O)c(OC)cc12	STE20-related kinase adapter protein beta (Homo sapiens, UniProt Q9C0K7)	ATP-site binding, ActivX KiNativ profiling	THP-1 cell lysate	Lys1 STLK6 probe site		IC50	> 5 µM
c1coc(CNc2ncnc3[nH]cnc23)c1	Gelsolin, peptide (GSN, Homo sapiens, UniProt P06396, D214Y)	amyloid aggregation, inhibitor, ThT fluorescence		12 h, 37 °C		IC50	38 ± 1.5 µM
